Results pooled from the literature.
Each numbered part is a random draw from the data of one study; scales do not carry over between parts. Numbers after ± are the reported error.
Sequence of UniProt O42275 (whole entry, looked up): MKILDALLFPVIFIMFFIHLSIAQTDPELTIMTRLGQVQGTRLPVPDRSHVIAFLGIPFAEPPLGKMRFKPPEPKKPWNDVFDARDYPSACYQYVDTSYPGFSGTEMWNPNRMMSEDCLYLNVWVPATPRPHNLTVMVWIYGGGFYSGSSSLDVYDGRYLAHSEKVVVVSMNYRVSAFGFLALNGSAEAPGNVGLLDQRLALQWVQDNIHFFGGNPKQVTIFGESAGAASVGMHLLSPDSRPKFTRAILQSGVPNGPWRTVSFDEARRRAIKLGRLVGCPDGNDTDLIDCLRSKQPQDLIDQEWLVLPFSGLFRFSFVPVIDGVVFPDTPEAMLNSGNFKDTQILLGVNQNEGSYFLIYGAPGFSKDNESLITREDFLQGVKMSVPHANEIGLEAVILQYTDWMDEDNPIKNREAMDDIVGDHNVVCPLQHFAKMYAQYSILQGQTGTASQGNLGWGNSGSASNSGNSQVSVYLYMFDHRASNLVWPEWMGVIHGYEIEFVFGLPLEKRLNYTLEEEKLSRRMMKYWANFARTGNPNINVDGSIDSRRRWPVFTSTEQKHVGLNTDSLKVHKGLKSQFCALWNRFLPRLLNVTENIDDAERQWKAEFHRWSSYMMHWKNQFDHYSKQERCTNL
Sequence of UniProt P34913 (whole entry, looked up): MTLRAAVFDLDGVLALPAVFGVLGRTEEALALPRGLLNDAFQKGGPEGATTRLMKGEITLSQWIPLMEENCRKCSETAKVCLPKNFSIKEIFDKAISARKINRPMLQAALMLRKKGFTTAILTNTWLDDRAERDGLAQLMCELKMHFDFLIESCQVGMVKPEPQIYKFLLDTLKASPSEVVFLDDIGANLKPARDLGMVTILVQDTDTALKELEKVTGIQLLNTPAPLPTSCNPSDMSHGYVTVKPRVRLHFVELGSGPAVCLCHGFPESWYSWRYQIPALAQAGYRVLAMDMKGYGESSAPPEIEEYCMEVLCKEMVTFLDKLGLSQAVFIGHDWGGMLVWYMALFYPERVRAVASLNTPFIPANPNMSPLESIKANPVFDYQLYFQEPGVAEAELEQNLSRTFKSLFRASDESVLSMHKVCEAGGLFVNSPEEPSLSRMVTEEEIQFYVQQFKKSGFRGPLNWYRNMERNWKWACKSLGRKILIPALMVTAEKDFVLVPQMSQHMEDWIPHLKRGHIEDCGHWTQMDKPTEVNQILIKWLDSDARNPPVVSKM
Sequence of UniProt Q8IZX4 (whole entry, unmodified, looked up): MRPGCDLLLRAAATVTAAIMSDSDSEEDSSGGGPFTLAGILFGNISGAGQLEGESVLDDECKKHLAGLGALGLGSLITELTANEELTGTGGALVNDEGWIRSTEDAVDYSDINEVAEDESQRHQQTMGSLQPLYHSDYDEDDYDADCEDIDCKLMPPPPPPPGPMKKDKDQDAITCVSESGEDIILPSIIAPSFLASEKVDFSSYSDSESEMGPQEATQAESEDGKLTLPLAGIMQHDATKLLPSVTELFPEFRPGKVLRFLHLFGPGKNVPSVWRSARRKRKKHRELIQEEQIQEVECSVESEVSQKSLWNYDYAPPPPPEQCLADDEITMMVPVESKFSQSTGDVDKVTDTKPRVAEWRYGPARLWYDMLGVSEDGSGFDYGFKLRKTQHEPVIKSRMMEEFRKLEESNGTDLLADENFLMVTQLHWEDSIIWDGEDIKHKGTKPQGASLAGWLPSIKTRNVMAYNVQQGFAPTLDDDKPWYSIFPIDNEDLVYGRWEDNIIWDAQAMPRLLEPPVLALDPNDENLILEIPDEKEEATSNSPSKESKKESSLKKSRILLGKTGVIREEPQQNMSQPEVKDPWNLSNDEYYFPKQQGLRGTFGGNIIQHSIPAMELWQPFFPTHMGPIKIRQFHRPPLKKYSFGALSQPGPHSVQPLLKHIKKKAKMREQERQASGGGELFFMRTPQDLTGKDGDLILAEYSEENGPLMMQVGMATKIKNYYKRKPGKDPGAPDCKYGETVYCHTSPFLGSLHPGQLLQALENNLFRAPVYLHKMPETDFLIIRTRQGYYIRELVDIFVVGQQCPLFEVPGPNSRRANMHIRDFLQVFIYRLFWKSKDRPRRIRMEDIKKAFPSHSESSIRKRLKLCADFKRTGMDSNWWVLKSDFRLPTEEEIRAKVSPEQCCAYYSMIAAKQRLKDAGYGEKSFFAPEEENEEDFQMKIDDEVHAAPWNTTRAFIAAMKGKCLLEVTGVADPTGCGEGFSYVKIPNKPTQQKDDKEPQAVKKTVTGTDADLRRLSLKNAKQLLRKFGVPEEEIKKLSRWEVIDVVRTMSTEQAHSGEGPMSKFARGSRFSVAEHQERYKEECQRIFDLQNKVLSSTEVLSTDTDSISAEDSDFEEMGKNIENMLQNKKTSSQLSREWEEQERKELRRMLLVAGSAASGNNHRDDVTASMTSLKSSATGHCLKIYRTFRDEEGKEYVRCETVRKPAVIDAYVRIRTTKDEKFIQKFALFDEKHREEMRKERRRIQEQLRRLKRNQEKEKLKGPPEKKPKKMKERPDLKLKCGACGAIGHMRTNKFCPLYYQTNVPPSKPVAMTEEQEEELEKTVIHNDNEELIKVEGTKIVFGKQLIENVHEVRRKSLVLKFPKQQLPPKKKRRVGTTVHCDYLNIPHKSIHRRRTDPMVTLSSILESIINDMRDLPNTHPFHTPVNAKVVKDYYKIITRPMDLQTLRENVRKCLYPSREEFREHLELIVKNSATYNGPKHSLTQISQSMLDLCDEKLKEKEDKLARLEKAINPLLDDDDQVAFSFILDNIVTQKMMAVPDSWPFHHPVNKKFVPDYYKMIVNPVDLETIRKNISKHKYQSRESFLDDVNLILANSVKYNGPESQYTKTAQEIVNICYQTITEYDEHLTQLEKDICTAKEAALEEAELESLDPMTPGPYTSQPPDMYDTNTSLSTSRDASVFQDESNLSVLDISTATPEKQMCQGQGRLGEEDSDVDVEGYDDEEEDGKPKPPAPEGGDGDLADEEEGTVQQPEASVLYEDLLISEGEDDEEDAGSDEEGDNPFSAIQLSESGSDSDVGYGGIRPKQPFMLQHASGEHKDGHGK

Set 1
SMILES: Cc1cc(OCc2nnc(SC3CCCC3)n2-c2cccnc2)ccc1-c1ccc(S(C)(=O)=O)cc1
cell line | CC50 [µM]
NCI-H522 | > 100
NCI-H226 | 9.22
OVCAR-8 | > 100
COLO 205 | > 100
CAKI-1 | > 100

Other studies, line by line
Compound | target or system | assay | system | conditions | endpoint | value
O=C(Nc1ccc(C(F)(F)F)cc1)NC1CCN(c2c(NS(=O)(=O)Cc3ccccc3)c(=O)c2=O)CC1 | Bifunctional epoxide hydrolase 2 (EPHX2, Homo sapiens, UniProt P34913) |  |  |  | IC50 | 0.0029 ± 0.0005 µM
O=C(Nc1ccc(-c2cnc3ccccc3c2)cc1)C1CCN(Cc2cccnc2)CC1 | Acetylcholinesterase (ache, Electrophorus electricus, UniProt O42275) |  |  |  | IC50 | > 10 µM
CC[C@@H]1C(=O)N(C)c2cnc(Nc3ccc(C(=O)NC4CCN(C)CC4)cc3OC)nc2N1C1CCCC1 | Transcription initiation factor TFIID subunit 1-like, BD2 (TAF1L, Homo sapiens, UniProt Q8IZX4) | thermal stabilisation, thermal shift |  | 10 µM | ΔTm | 0.34 ± 0.5 °C
N#Cc1ccc(-c2csc(CNC(=O)C34CC(CN(C(=O)COCCF)C3)C4)n2)cc1 |  |  | Sprague Dawley rats male, plasma | oral, 3 mg/kg | unbound AUC | 2.1 µM·h
C#Cc1cccc(Nc2ncnc3cc(OCCOC)c(OCCOC)cc23)c1 | HepG2 | MTT |  | 25 µg/mL, maintenance medium, 2% serum | viability | 38.8%

A few entries again (other studies, line by line):
Compound | target or system | assay | system | conditions | endpoint | value
C#Cc1cccc(Nc2ncnc3cc(OCCOC)c(OCCOC)cc23)c1 | HepG2 | MTT |  | 25 µg/mL, maintenance medium, 2% serum | viability | 38.8%
